Experimental data from different studies.
Lines come from different studies, so protocols differ. Numbers after ± are the reported error.

| SMILES | assay | system | setting | Cmax |
| --- | --- | --- | --- | --- |
| CC1Cc2ccccc2N1NC(=O)c1ccc(Cl)c(S(N)(=O)=O)c1 (centres unmarked) |  | healthy Chinese volunteers, whole blood | oral, 1.25 mg, fasting, together with: perindopril tert-butylamine 4 mg | 62 ± 10.8 ng/mL |
| CON | LC-MS/MS | cancer patients, plasma | iv infusion, dose not given, 120 h, 16 cycles, together with: oral temozolomide | 40.6 ng/mL |
| CCCC[C@H](NC(C)=O)C(=O)N[C@H]1CCC(=O)NC[C@@H](C(=O)N[C@@H](Cc2c[nH]c3ccccc23)C(N)=O)NC(=O)[C@H](CCCNC(=N)N)NC(=O)[C@@H](Cc2ccccc2)NC(=O)[C@H](Cc2c[nH]cn2)NC1=O |  | healthy volunteers, plasma | subcutaneous, 1.0 mg once daily, day 7, steady state median | 22.2 ng/mL |
| CC/C(=C(\c1ccccc1)c1ccc(OCCN(C)C)cc1)c1ccccc1 |  | female breast cancer patients, plasma | dose-normalised to 20 mg, together with: weak CYP2D6-inhibiting SSRI escitalopram or citalopram | 366 nM |
| C=C(C)[C@@H]1CC[C@]2(NCCN3CCS(=O)(=O)CC3)CC[C@]3(C)[C@H](CC[C@@H]4[C@@]5(C)CC=C(C6=CC[C@@](CF)(C(=O)O)CC6)C(C)(C)[C@@H]5CC[C@]43C)[C@@H]12 |  | healthy adults, plasma | oral, 200 mg once daily, day 7, steady state, moderate-fat meal, together with: dolutegravir 50 mg | 1660 ng/mL |
| CC(=O)N[C@H](CSSC[C@H](N)C(=O)O)C(=O)N[C@H](C)C(=O)N[C@H](CCCNC(=N)N)C(=O)N[C@H](CCCNC(=N)N)C(=O)N[C@H](CCCNC(=N)N)C(=O)N[C@H](C)C(=O)N[C@H](CCCNC(=N)N)C(N)=O |  | Japanese hemodialysis patients, SHPT, plasma | intravenous, 2.5 mg 3 times weekly, 4 weeks, day 27, after last dose | 168 ± 24 ng/mL |
| CN1CCN(c2ccc3nc(-c4c(N)c5c(F)cccc5[nH]c4=O)[nH]c3c2)CC1 |  | patients, plasma | oral, 300 mg, day 1, median concurrent dosing, together with: gemcitabine and capecitabine | 181 ng/mL |
| COc1ccc2c3c1O[C@H]1C[C@@H](OC(=O)c4ccccc4)C=C[C@@]31CCN(C)C2 |  | healthy elderly men, plasma | intranasal, 22 mg, single dose | 26.5 ng/mL |
| CC(=O)Nc1ccc(O)cc1 |  | healthy volunteers, both sexes, plasma | oral, 650 mg, day 6, together with: favipiravir 800 mg, extended | 9900 ng/mL |
| NCCCC[C@H](N[C@@H](CCc1ccccc1)C(=O)O)C(=O)N1CCC[C@H]1C(=O)O |  | healthy volunteers, plasma | oral, 10 mg, geometric mean, together with: 200 mL water | 42.2 ng/mL |
| COc1cc(OC)c(/C=C/S(=O)(=O)Cc2ccc(OC)c(NCC(=O)O)c2)c(OC)c1 |  | cancer patients, phase I, plasma | oral, 560 mg twice daily, day 1 cycle 1 | 4040 ± 2970 ng/mL |
| CO[C@H]1C[C@@H]2CC[C@@H](C)[C@@](O)(O2)C(=O)C(=O)N2CCCC[C@H]2C(=O)O[C@H]([C@H](C)C[C@@H]2CC[C@@H](OP(C)(C)=O)[C@H](OC)C2)CC(=O)[C@H](C)/C=C(\C)[C@@H](O)[C@@H](OC)C(=O)[C@H](C)C[C@H](C)/C=C/C=C/C=C/1C | HPLC-MS/MS | Japanese patients, whole blood | oral, 40 mg, day 26, cycle 1, geometric mean | 188 ng/mL |
| CC(C)=CCC[C@](C)(O[C@@H]1O[C@H](CO)[C@@H](O)[C@H](O)[C@H]1O)[C@H]1CC[C@]2(C)[C@@H]1[C@H](O)C[C@@H]1[C@@]3(C)CC[C@H](O[C@@H]4O[C@H](CO)[C@@H](O)[C@H](O)[C@H]4O[C@@H]4O[C@H](CO)[C@@H](O)[C@H](O)[C@H]4O)C(C)(C)[C@@H]3CC[C@]12C | LC-MS/MS | healthy female volunteers, serum | oral, 3 g red ginseng | 2.55 ± 1.81 ng/mL |
| COc1cccc(N2CCN(C3=Nc4c(F)cccc4[C@H](CC(=O)O)N3c3cc(C(F)(F)F)ccc3OC)CC2)c1 | UHPLC-MS/MS | healthy women, plasma | intravenous infusion, 480 mg single dose, 60 min infusion, HPβCD formulation | 27300 ± 4420 ng/mL |
| O=C1Nc2c(C(=O)O)ccnc2N(C2CC2)c2ncccc21 |  | olive baboon (Papio anubis), non-pregnant, serum | oral, 400 mg nevirapine, tablet | 264 ± 17 ng/mL |
| CC1=C2C[C@H]3[C@@H](CC[C@@H]4C[C@H](NS(C)(=O)=O)CC[C@@]43C)[C@@H]2CC[C@@]2(C1)O[C@@H]1C[C@H](C)CN[C@H]1[C@H]2C |  | patients, plasma | oral, 90 mg single, day -7, cycle 1 | 20.2 ng/mL |
| CS(=O)(=O)n1cc2c(n1)CN([C@H]1CO[C@H](c3cc(F)ccc3F)[C@@H](N)C1)C2 |  | healthy Japanese men, plasma | oral, 50 mg once weekly, day 1 | 1080 nM |

Some of these lines once more:
| SMILES | assay | system | setting | Cmax |
| --- | --- | --- | --- | --- |
| CO[C@H]1C[C@@H]2CC[C@@H](C)[C@@](O)(O2)C(=O)C(=O)N2CCCC[C@H]2C(=O)O[C@H]([C@H](C)C[C@@H]2CC[C@@H](OP(C)(C)=O)[C@H](OC)C2)CC(=O)[C@H](C)/C=C(\C)[C@@H](O)[C@@H](OC)C(=O)[C@H](C)C[C@H](C)/C=C/C=C/C=C/1C | HPLC-MS/MS | Japanese patients, whole blood | oral, 40 mg, day 26, cycle 1, geometric mean | 188 ng/mL |
| COc1cccc(N2CCN(C3=Nc4c(F)cccc4[C@H](CC(=O)O)N3c3cc(C(F)(F)F)ccc3OC)CC2)c1 | UHPLC-MS/MS | healthy women, plasma | intravenous infusion, 480 mg single dose, 60 min infusion, HPβCD formulation | 27300 ± 4420 ng/mL |
| CON | LC-MS/MS | cancer patients, plasma | iv infusion, dose not given, 120 h, 16 cycles, together with: oral temozolomide | 40.6 ng/mL |
